Experimental data pooled from the literature.
Every numbered part comes from another study and shows a few of its results, in no order. Changes are numbered by the printed parent chain.

Sample 1
Target: CCNE2, cyclin fold, Cln2 fusion (human)
Method: yeast growth competition, sequencing
Medium: yeast
Notes: strong parent motif
Baseline: not given
Reading: higher = stronger binding
Parent: viral docking peptide; YKVKRRLVFGADD
Substitution	normalised enrichment score
YKVYRRLVFGADD [K4Y]	1.14
YKAKRRLVFGADD [V3A]	4.8
YKVKRRLVFGGDD [A11G]	5.88
YEVKRRLVFGADD [K2E]	5
YKVKRRLVFDADD [G10D]	6.12
YKLKRRLVFGADD [V3L]	0.865
YKVKHRLVFGADD [R5H]	0.779
YKVKRRLVFGAPD [D12P]	5.61
YKVKERLVFGADD [R5E]	0.341
YKRKRRLVFGADD [V3R]	0.67
YKVQRRLVFGADD [K4Q]	3.12
YKVKRWLVFGADD [R6W]	1.51
YDVKRRLVFGADD [K2D]	4.99
YKVKRRLVFGAAD [D12A]	5.22
YKVKRRLVKGADD [F9K]	0.167
YKVKRRLYFGADD [V8Y]	5.59
YMVKRRLVFGADD [K2M]	5.35
YKVKRRLVFYADD [G10Y]	4.44
YKVKRRQVFGADD [L7Q]	-0.00529
YKTKRRLVFGADD [V3T]	3.01
YKVKMRLVFGADD [R5M]	0.589
YKVKRQLVFGADD [R6Q]	3.94
YKFKRRLVFGADD [V3F]	2.97
YKVKRRLVFKADD [G10K]	4.71

Sample 2
Target: OGT, full length, His-tagged (human)
Method: phage display, sequencing
Medium: in vitro
Tested at: 1 µg OGT
Notes: single substitutions, 15-mer displayed peptide, unchanged parent 5.27
Baseline: input library
Reading: higher = stronger binding
Parent: peptide; GDFPVMFMPKYSIIY
Substitution	fold enrichment [fold]
GDFPVMFMPKYSILY [I14L]	2.61
GDFPVMFMRKYSIIY [P9R]	3.05
GDFPVMQMPKYSIIY [F7Q]	0.92
GNFPVMFMPKYSIIY [D2N]	5.77
GDFPVMFWPKYSIIY [M8W]	3.49
GDFPVMFMPKMSIIY [Y11M]	2.28
GDFKVMFMPKYSIIY [P4K]	5.94
YDFPVMFMPKYSIIY [G1Y]	7.05

Sample 3
Target: Max dimerization protein 1, bHLH-zipper, MAX partner unstated (MXD1, Homo sapiens, UniProt Q05195, residues 56-136)
Method: protein-binding microarray
Form: double-stranded DNA, one strand shown
Medium: in vitro
Tested at: not given
Notes: k-mer, scored over probes, only values ≥0.25
Reading: higher = stronger binding
Target sequence (chain): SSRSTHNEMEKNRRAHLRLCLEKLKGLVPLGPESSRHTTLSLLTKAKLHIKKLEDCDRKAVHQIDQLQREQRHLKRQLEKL
Strand	E-score
ATGTGCGC	0.358
CACCCCAC	0.317
CCTCATGC	0.364
ACGCGTAT	0.269
ATGCGCCC	0.271
ATGCGTCA	0.288
CCATATGC	0.352
GGTGGGTA	0.363

Sample 4
Target: ABI1, truncated, D143A, DHFR fusion (Arabidopsis thaliana)
Method: DHFR PCA, deep sequencing
Medium: yeast
Notes: methotrexate growth selection, single substitutions
Added: (+)-ABA 2500 µM
Baseline: wild-type fitted maximum
Reading: higher = stronger binding
Parent: PYL1, truncated, DHFR fusion (Arabidopsis thaliana); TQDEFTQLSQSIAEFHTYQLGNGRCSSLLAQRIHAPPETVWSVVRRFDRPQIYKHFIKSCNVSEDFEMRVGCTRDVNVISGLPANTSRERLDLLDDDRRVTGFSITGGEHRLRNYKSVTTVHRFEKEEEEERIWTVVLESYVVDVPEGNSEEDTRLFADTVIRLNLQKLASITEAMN
Substitution	relative binding score [%]
S140Q	56.5
S42L	93.7
C72A	95.5
D97W	93.1
T120D	22.2
R123L	102
R90W	58.1
T39K	99.9

Repeated from above (sample 4):
Substitution	relative binding score [%]
R123L	102
S140Q	56.5
T39K	99.9
